Measured values of several laboratories.
Protocols differ between the studies behind these lines. ± gives the spread as reported.

| Compound | test | test system | setting | scale | measurement | result |
| --- | --- | --- | --- | --- | --- | --- |
| N#Cc1cnc2ccc(F)cc2c1N1CCC(C(=O)Nc2ccc(S(N)(=O)=O)cc2)CC1 | – | rat liver microsomes | – | – | intrinsic clearance (scaled) | 66 mL/min/kg |
| COc1cc(Nc2ncc3c(n2)-c2ccc(Cl)cc2C(c2c(F)cccc2OC)=NC3)ccc1C(=O)O | refers to: Hypokalemia, grade 3 | cancer patients, phase 1/2 | oral, dose not given, together with: pembrolizumab | – | patients with adverse event | 8% |
| C=CC(=O)NC1CCN(c2ncc3ncnc(Nc4ccc(Oc5ccc6c(c5)ncn6C)c(C)c4)c3n2)CC1 | refers to: total radioactivity | healthy male human, whole blood and plasma | oral, 60 mg, 216 h, geometric mean | – | blood-to-plasma ratio | 3.84 |
| O=C(Cn1ccnc1)Nc1ccc(C2CCCCC2)cc1 | – | rat liver microsomes | 1 µM | – | hepatic clearance | 19 mL/min/kg |
| CO[C@H]1C[C@@H]2CC[C@@H](C)[C@@](O)(O2)C(=O)C(=O)N2CCCC[C@H]2C(=O)O[C@H]([C@H](C)C[C@@H]2CC[C@@H](OC(=O)NCCOCCOCCOCCOCCOCCOCCOCCOCCC(=O)N3CCc4cc(Cn5nc(-c6ccc7oc(N)nc7c6)c6c(N)ncnc65)ccc4C3)[C@H](OC)C2)C[C@@H](O)[C@H](C)/C=C(\C)[C@@H](O)[C@@H](OC)C(=O)[C@H](C)C[C@H](C)/C=C/C=C/C=C/1C | – | human patients, plasma | intravenous, 12 mg, cycle 1 day 15, weekly dosing, mean | – | AUClast | 0.679 µM·h |
| O=C(Nc1ccc([C@H]2[C@@H](F)[C@@H](F)C[C@@H](F)[C@H]2F)cc1)c1cn[nH]c1 | – | rat liver microsomes | 1 µM | – | hepatic clearance | 37 mL/min/kg |
| C#Cc1ccc(C(F)(F)F)cc1C=O | chemical stability, HPLC-MS | borate buffered saline | pH 10.2, no N-acetyl-lysine | – | degradation rate constant | 0 h⁻¹ |
| O=C(COCC(F)F)Nc1ccc(C2CCCCC2)cc1 | hepatocyte stability | cryopreserved human hepatocytes | 1 µM | – | hepatic clearance | 19 mL/min/kg |
| OCc1nc2ccc(NCc3ccc(C(F)(F)F)cc3)cc2[nH]1 | – | Balb/c mice, male, plasma | intravenous, 1 mg/kg | – | MRT(0-inf) | 1.09 ± 0.1 h |
| NC1(C(=O)N[C@@H](CCO)c2ccc(Cl)cc2)CCN(c2nc[nH]c3nccc2-3)CC1 | – | metastatic CRPC patients | 480 mg b.i.d., any grade, treatment-related, together with: enzalutamide 160 mg daily | – | incidence of Amnesia | 0% |
| C[C@H]1CN(C(=O)CC#N)[C@]12CCN(c1ncnc3[nH]ccc13)C2 | – | human | oral, 12 mg single dose | – | participants withdrawn due to AEs | 0% |
| CC(=O)N1CC(C(=O)Nc2ccc(C3CCCCC3)cc2)C1 | liver microsome stability | human liver microsomes | 1 µM, without NADPH | – | hepatic clearance | 3.9 mL/min/kg |
| CN1CCN(c2cccc3c2CCN(C(=O)/C=C/c2c(-n4cnnn4)ccc(Cl)c2F)[C@@H]3C(=O)Nc2ccc(C(=O)O)cc2)C(=O)C1 | – | healthy human subjects | intravenous infusion, 9 mg/h, 5 days | – | subjects with serious adverse event | 0% |
| CC(C)(O)c1cnc2ncc(-c3ccc(F)c(-c4c(F)cccc4C#N)c3)n2n1 | responding, conflict procedure | rhesus monkey | intravenous, up to 1.0 mg/kg | – | non-suppressed response rate | no effect |
| CCOc1c([C@H](C)n2nc(C)c3c(N)ncnc32)cc(Cl)c(F)c1[C@@H]1CNC(=O)C1 | – | human B-cell malignancy patients | oral, all doses | – | observations with ΔQTcF 30-60 ms | 2.4% |
| CN1CCC(c2ccc(-c3ccc(C4CCCCC4)cc3)cn2)CC1 | liver microsome stability | human liver microsomes | 1 µM, without NADPH | – | hepatic clearance | 12 mL/min/kg |
| CCO[C@H]1CCN(Cc2c(OC)cc(C)c3[nH]ccc23)[C@H](c2ccc(C(=O)O)cc2)C1 | – | human moderate hepatic impairment, plasma | oral, 200 mg single dose, mean | – | unbound AUCinf | 5990 ng·h/mL |
| C[C@@H](N)C1CCN(S(=O)(=O)c2cccc3cnccc23)CC1 | – | healthy volunteers | 150 mg, fasted | – | participants with hypotension | 0% |
| N#Cc1ccc2c(c1)[C@H]1CCCN(C(=O)c3ccc4[nH]cnc4c3)[C@H]1C2 | – | human | 80 mg, end of trial | – | maximum ACTH level | 12.9 pmol/L |
| CC(C)NCCCC[C@@H]1NC(=O)[C@H](Cc2ccc(O)cc2)NC(=O)[C@H](Cc2ccccc2)NC(=O)CC[C@H](C(=O)N[C@@H](CCCCNC(C)C)C(=O)N[C@@H](CCCCNC(=O)[C@H](CCC(=O)O)NC(=O)[C@H](CCC(=O)O)NC(=O)[C@H](CCC(=O)O)NC(=O)CN2CCN(CC(=O)O)CCN(CC(=O)O)CCN(CC(=O)O)CC2)C(N)=O)NC(=O)CNC(=O)[C@H](Cc2ccc3ccccc3c2)NC(=O)[C@@H](CCCNC(=N)N)NC1=O [gallium-68 labelled] | – | mouse with PC-3 xenograft, fat | intravenous, 1 h | – | tissue uptake | 0.17 %ID/g |
| c1ncc(-c2ccc(C3CCCCC3)cc2)cn1 | hepatocyte stability | cryopreserved mouse hepatocytes | 1 µM | – | hepatic clearance | 66 mL/min/kg |
| CC(C)(C(=O)N1CCOc2c(C#N)cncc2C1)C(F)F | refers to: musculoskeletal disorders | healthy humans, both sexes | oral, 10 mg single dose | – | share of subjects with TEAE | 0% |
| CCn1c(=O)c(-c2cc(NC(=O)Nc3ccccc3)c(F)cc2Br)cc2cnc(NC)cc21 | refers to: amylase increased | healthy human, matched to mild hepatic impairment | oral, 50 mg single dose | – | participants with grade ≥ 3 TEAE | 0% |
| CC(C)(C)NC(=O)C1CCN(Cc2cccc(/N=N/c3ccccc3F)c2)CC1 | – | DMSO | 25 µM, 25 °C | – | absorption maximum, trans isomer | 333 nm |
| COc1ccc2[nH]c([S+]([O-])Cc3ncc(C)c(OC)c3C)nc2c1 (stereo not shown) | thermogravimetric analysis | raw compound | – | – | degradation onset temperature | 153 °C |

| Compound | test | test system | setting | scale | measurement | result |
| --- | --- | --- | --- | --- | --- | --- |
| Cl.[2H]C([2H])([2H])CC(=O)c1cnc(NC(=O)C2CC2)cc1Nc1cccc(-c2ncn(C([2H])([2H])[2H])n2)c1OC | geometric mean | human | oral, 20 mg once daily, day 7, fasted, liquid, multiple dose | – | elimination rate constant | 2.75e-05 s⁻¹ |
| Cn1ncnc1[C@H]1c2n[nH]c(=O)c3cc(F)cc(c23)N[C@@H]1c1ccc(F)cc1 | – | human patients, plasma | oral, 600 µg/m2 twice daily, day 1, monotherapy, dose level DL6, median | – | AUC(0-8h) | 27.8 ng·h/mL |
| COc1ccc2c(c1)CN(C(=O)CCN1CCC(Cc3ccccc3)CC1)CC[S@@+]2[O-] | telemetry | conscious dog | intravenous, 8 mg/kg, 0.5 h | – | heart rate | 158 ± 45 beats/min |
| C[C@]12CC[C@@H]3c4ccc(O)cc4CC[C@H]3[C@@H]1CCC2=O | – | cow whole milk | 20 nM | baseline: milk fat over skim milk | milk fat partition ratio | 69 |
| CCn1c(C(=O)N(C2CC2)C2CC2)cc2c3c(ncn3C)c(Nc3cc(C)n(C)n3)nc21 | – | cancer patients | oral, 200 mg twice daily, day 15, 342.0 h | – | plasma concentration | 5890 ng/mL |
| CC(C)C[C@H](NC(=O)[C@@H](N)C(C)C)C(=O)N[C@@H](CCCNC(=N)N)C(=O)N[C@@H](Cc1c[nH]c2ccccc12)C(=O)N[C@@H](CO)C(=O)N[C@@H](CCCNC(=N)N)C(=O)N[C@@H](CCCCN)C(=O)N[C@@H](CC(C)C)C(=O)N1CCC[C@H]1C(=O)N[C@@H](CS)C(=O)N[C@H](C(=O)N[C@@H](CO)C(N)=O)C(C)C | 12G5 competition, SUP-T1 cells | human plasma | 20 µM, 2 h, 37 °C | – | remaining activity | 24 ± 4% |
| CCN1/C(=C/C(C)=O)Sc2ccc(F)cc21 | – | cynomolgus monkey | oral, 30 mg/kg, 1 h post-dose | baseline: pre-dose | mean blood pressure change | 96.9 ± 5.6% |
| O=C(O)CCCOc1ccc([18F])cc1-c1cc(-c2ccccc2C(F)(F)F)n(-c2ccccc2)n1 | 18F biodistribution | male ddY mouse, whole blood | intravenous, 2.1 MBq, 60 min | – | blood radioactivity | 0.11 ± 0.03 SUV |
| Cc1cc(C)c(CNC(=O)c2cc(Cl)c3c(c2C)O[C@@](C)([C@H]2CC[C@H](N(C)C)CC2)O3)c(=O)[nH]1 | refers to: Neutropenia | human patients | oral, 200 mg once daily, 1 day onset day 14 | – | patients with grade ≥3 TEAE | 4.2% |
| COc1cc(N2CCC(N3CCN(C)CC3)CC2)ccc1Nc1ncnc(Nc2ccccc2S(=O)(=O)C(C)C)n1 | – | human, plasma | oral, 325 mg, day 28 | – | Cmax | 1340 ng/mL |
| Cc1ccc2cncc(N3CCc4c(cc(Cn5ccnc5)cc4-c4cn(C)nc4C(F)(F)F)C3=O)c2c1 | – | CD-1 mouse, male, plasma | oral, 10 mg/kg | – | AUC extrapolated | 0.8% |
| CNCCOC12CC3(C)CC(C)(CC(Cn4ncc(-c5ccc(N6CCc7cccc(C(=O)Nc8nc9ccccc9s8)c7C6)nc5C(=O)O)c4C)(C3)C1)C2 | – | beagle dog, male, anaesthetised | intravenous bolus, 0.03 mg/kg, 60 min | baseline: baseline | dP/dt at 50 change | 0% |
| CCCOc1ccc(NC(=O)CN2CCN(C)CC2)cc1-c1nc(CC)c(CC)c(=O)[nH]1 | – | healthy Chinese men | 10 mg, together with: placebo | baseline: baseline | maximal increase in pulse rate | 17.6 ± 10.2 bpm |
| Cn1cc(-c2cn3nccc3c(-c3cnn([C@]4(CC#N)C[C@@H](C#N)C4)c3)n2)cn1 | – | healthy humans fed, plasma | oral, 30 mg once daily, day 10, geometric mean | baseline: day 10 over day 1 | observed accumulation ratio | 1.1 |
| Cn1cc(Nc2nccc(-c3ccc4c(c3)CN(C3COC3)CC[C@H]4NC(=O)c3cn(C(C)(C)C)nn3)n2)cn1 | – | human, whole blood | 150 mg twice daily, day 7 | baseline: pre-dose baseline | CD3+ T cell count change | -2.63% |
| CCc1cc2ncc(CN3CCN(c4ccc(C(=O)NC)nc4)CC3)cc2[nH]c1=O | – | male rat, blood | oral, 5 mg/kg/day, 4 weeks | baseline: vehicle control | Lymphocytes count ratio | 0.71 |
| CC(=O)N(C(=O)c1cc(C(F)(F)F)cc(C(F)(F)F)c1)c1ccccc1 | chemical stability, HPLC-MS | borate buffered saline | pH 10.2, no N-acetyl-lysine | – | degradation rate constant | 0.5 h⁻¹ |
| O=C(Nc1nc2cccc(-c3ccc(CN4CCS(=O)(=O)CC4)cc3)n2n1)C1CC1 | refers to: asthenia | human rheumatoid arthritis patients | oral, 150 mg once daily, 4 weeks, regardless of relatedness | – | treatment-emergent adverse events | 0% |
| O=C(NCCN1CCCC1=O)c1ccc(C2CCCCC2)cc1 | liver microsome stability | dog liver microsomes | 1 µM | – | hepatic clearance | 25 mL/min/kg |
| Cc1ccc([C@@H]2O[C@H](CO)[C@@H](O)[C@H](O)[C@H]2O)cc1Cc1ccc(-c2ccc(F)cc2)s1 | – | Japanese type 2 diabetes patients | 200 mg, day 17, 24 h urine collection | baseline: baseline | urinary magnesium excretion change | 4.57 mg |
| COc1ccc2[nH]c([S+]([O-])Cc3ncc(C)c(OC)c3C)nc2c1 (stereo not shown) | – | healthy Chinese volunteers, plasma | oral, 20 mg, fasted, CYP2C19 poor metabolizers | – | Cmax | 1500 ± 104 ng/mL |
| OC[C@H]1O[C@@H](c2ccc(F)c(Cc3cc4ccccc4s3)c2)[C@H](O)[C@@H](O)[C@@H]1O | – | Japanese type 1 diabetes patients | oral, 50 mg/day, day 14 | – | hypoglycaemia adverse events | 6 % patients |
| CC(C(=O)Nc1ccc(C2CCCCC2)cc1)n1cncn1 (stereo not shown) | – | cryopreserved mouse hepatocytes | 1 µM | – | hepatic clearance | 49 mL/min/kg |
| O=C(O)CCC(=O)O.[2H]C([2H])([2H])Oc1cc(C)c2[nH]ccc2c1CN1CC[C@@H](C2CC2)C[C@H]1c1ccc(C(=O)O)cc1 | – | healthy Chinese subjects | 100 mg, single ascending dose | – | TEAE decreased neutrophil | 0% |

Some of these lines once more:
| Compound | test | test system | setting | scale | measurement | result |
| --- | --- | --- | --- | --- | --- | --- |
| C=CC(=O)NC1CCN(c2ncc3ncnc(Nc4ccc(Oc5ccc6c(c5)ncn6C)c(C)c4)c3n2)CC1 | refers to: total radioactivity | healthy male human, whole blood and plasma | oral, 60 mg, 216 h, geometric mean | – | blood-to-plasma ratio | 3.84 |
| O=C(Cn1ccnc1)Nc1ccc(C2CCCCC2)cc1 | – | rat liver microsomes | 1 µM | – | hepatic clearance | 19 mL/min/kg |
| CO[C@H]1C[C@@H]2CC[C@@H](C)[C@@](O)(O2)C(=O)C(=O)N2CCCC[C@H]2C(=O)O[C@H]([C@H](C)C[C@@H]2CC[C@@H](OC(=O)NCCOCCOCCOCCOCCOCCOCCOCCOCCC(=O)N3CCc4cc(Cn5nc(-c6ccc7oc(N)nc7c6)c6c(N)ncnc65)ccc4C3)[C@H](OC)C2)C[C@@H](O)[C@H](C)/C=C(\C)[C@@H](O)[C@@H](OC)C(=O)[C@H](C)C[C@H](C)/C=C/C=C/C=C/1C | – | human patients, plasma | intravenous, 12 mg, cycle 1 day 15, weekly dosing, mean | – | AUClast | 0.679 µM·h |
